Published values from different studies.
Protocols differ between the studies behind these lines. “And” joins repeats or separate records; there may be more than shown. ± marks the error that the study gave.
ARID1B: AT-rich interactive domain-containing protein 1B (ARID1B, Homo sapiens, UniProt Q8NFD5)
Chain of UniProt Q8NFD5 (whole entry, looked up): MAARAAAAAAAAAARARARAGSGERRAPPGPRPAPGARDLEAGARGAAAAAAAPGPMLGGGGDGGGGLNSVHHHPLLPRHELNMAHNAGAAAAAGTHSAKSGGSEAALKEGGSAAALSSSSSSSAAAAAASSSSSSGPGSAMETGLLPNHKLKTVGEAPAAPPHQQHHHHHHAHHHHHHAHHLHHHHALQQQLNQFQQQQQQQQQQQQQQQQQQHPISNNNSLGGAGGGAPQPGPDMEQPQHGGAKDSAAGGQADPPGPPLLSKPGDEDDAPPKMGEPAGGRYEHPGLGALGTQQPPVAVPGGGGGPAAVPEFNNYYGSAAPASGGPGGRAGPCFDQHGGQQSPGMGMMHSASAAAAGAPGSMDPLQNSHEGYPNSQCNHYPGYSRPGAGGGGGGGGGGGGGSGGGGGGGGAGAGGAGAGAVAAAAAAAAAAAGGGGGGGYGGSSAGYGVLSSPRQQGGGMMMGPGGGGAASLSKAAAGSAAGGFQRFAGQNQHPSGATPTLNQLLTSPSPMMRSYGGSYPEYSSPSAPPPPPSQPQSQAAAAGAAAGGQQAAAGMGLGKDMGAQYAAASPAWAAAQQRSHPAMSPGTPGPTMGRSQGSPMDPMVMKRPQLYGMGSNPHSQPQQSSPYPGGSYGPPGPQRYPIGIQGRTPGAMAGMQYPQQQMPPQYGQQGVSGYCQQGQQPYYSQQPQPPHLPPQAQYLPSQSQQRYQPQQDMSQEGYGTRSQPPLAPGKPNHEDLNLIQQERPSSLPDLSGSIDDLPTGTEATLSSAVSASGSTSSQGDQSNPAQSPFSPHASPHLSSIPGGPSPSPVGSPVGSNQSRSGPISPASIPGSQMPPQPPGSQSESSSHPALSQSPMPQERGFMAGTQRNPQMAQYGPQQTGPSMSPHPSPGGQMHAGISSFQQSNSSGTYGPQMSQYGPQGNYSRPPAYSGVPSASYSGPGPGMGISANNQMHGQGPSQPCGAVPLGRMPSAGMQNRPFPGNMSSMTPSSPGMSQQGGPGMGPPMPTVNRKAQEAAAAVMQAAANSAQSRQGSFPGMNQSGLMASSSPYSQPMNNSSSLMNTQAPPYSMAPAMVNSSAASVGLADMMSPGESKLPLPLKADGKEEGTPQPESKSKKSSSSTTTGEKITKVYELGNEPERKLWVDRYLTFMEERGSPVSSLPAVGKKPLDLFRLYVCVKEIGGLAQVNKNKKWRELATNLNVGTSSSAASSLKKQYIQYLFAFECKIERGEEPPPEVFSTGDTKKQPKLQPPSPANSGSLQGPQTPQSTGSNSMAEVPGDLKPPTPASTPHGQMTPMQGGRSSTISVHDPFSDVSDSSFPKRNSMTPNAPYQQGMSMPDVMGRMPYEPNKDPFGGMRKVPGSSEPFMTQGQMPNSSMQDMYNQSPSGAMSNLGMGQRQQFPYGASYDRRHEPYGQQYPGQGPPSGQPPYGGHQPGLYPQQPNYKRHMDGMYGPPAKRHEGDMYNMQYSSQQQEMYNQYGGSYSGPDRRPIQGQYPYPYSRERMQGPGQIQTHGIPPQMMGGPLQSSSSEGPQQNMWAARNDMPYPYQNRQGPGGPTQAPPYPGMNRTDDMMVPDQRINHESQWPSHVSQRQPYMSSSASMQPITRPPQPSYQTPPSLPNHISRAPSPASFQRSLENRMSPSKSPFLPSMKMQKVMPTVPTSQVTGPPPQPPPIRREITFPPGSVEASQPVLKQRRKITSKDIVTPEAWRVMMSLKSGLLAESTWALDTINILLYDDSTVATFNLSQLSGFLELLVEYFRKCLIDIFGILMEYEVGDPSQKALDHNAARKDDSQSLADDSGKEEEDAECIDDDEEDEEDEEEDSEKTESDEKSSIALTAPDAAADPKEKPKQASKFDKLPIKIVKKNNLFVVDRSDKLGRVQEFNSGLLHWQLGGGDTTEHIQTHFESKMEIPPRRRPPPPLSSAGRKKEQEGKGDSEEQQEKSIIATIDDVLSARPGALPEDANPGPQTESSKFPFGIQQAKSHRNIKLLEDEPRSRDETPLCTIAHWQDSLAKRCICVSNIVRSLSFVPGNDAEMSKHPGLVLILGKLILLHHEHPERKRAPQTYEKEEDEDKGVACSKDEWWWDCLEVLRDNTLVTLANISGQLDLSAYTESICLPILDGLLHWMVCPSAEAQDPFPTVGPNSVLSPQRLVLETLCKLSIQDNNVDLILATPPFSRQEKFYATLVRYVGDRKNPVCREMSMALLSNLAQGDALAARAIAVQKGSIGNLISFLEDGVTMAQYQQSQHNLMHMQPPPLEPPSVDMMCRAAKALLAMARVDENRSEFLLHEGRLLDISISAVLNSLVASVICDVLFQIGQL
gyrB with GyrA: DNA gyrase subunit B, with GyrA (gyrB, Mycobacterium tuberculosis, UniProt P9WG45)
Chain of UniProt P9WG45 (whole entry, looked up): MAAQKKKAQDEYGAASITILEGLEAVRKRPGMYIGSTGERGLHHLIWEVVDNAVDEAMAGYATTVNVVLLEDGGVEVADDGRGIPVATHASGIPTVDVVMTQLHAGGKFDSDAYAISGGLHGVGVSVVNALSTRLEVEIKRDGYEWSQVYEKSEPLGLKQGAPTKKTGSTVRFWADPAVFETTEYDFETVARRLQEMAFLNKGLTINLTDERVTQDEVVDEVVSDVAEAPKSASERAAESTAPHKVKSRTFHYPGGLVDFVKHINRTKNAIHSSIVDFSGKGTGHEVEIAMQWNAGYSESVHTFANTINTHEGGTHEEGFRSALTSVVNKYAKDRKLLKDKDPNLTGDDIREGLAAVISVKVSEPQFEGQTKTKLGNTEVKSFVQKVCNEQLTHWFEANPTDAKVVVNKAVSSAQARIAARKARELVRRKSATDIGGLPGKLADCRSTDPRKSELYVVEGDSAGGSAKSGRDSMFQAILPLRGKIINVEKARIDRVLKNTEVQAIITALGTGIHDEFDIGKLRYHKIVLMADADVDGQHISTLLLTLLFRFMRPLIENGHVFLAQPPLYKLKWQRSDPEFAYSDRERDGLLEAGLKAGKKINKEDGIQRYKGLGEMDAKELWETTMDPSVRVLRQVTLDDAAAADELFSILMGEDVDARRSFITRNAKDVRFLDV
CNR1: Cannabinoid receptor 1 (CNR1, Homo sapiens, UniProt P21554)
Chain of UniProt P21554 (whole entry, unmodified, looked up): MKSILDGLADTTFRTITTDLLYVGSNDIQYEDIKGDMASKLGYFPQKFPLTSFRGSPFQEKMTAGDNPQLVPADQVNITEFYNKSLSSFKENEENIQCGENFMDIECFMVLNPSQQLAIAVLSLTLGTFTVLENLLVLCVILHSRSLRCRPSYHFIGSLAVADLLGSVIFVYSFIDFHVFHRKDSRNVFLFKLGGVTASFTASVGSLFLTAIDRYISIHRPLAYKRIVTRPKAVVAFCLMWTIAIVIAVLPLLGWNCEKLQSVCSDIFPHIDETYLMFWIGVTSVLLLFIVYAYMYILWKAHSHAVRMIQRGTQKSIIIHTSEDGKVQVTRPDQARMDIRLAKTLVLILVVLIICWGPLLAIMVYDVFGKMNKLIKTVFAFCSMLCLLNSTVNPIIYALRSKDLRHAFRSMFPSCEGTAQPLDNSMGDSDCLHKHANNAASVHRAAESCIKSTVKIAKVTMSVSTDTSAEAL
Chain of UniProt P34972 (whole entry, unmodified, looked up): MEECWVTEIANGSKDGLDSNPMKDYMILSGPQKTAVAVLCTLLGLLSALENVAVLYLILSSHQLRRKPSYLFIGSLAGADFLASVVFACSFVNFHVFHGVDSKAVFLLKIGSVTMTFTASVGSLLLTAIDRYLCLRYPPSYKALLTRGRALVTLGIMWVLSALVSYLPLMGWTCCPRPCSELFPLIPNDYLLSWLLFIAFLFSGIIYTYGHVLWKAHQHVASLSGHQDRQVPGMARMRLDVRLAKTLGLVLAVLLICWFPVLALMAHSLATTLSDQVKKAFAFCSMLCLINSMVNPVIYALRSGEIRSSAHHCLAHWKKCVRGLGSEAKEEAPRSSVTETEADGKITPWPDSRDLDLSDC
Chain of UniProt P41143 (whole entry, unmodified, looked up): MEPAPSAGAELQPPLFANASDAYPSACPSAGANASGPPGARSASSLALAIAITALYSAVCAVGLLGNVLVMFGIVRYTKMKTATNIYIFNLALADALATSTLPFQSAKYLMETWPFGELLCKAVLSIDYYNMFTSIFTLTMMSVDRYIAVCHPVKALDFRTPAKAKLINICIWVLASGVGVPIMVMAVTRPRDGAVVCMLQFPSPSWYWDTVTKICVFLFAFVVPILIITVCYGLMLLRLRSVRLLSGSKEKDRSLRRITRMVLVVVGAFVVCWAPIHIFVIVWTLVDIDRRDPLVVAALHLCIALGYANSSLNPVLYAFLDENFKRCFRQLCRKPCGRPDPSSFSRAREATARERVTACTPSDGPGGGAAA
Chain of UniProt Q00987 (whole entry, looked up): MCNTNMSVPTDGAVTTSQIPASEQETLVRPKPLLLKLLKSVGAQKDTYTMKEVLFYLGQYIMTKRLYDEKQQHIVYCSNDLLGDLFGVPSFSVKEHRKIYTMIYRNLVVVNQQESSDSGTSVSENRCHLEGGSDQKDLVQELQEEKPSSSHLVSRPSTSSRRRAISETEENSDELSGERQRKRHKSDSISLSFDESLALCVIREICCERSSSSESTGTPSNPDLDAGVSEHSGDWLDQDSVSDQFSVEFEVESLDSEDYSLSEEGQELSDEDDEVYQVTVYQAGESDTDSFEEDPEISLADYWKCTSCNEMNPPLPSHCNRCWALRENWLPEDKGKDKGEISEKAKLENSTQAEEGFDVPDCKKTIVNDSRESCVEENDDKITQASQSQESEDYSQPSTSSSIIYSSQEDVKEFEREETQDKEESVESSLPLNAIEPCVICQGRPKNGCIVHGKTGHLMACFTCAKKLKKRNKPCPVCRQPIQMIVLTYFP

SMILES	tested on	test	test system	conditions	measurement	value
CCCCCn1cc(C(=O)c2cccc3ccccc23)c2ccccc21	CNR1 (Homo sapiens, UniProt P21554, F174A)	G protein activation, agonist, BRET			EC50	170 nM
CC(C)CC(C(=O)N1CC2(CC1C#N)C(=O)Nc1ccccc12)N(C)C(=O)c1cc2c(F)cc(F)c(F)c2[nH]1 (stereo not drawn)	Caspase-3 (CASP3, Homo sapiens, UniProt P42574)	enzyme activity, inhibitor			IC50	4200 nM and 4160 nM
CC(=O)N(Cc1ccccc1)[C@@H](C)C(=O)N(C)[C@@H](C)C(=O)N(CCc1ccc(Cl)cc1)[C@@H](C)C(=O)N(C)[C@@H](C)C(=O)N(CCC(C)C)[C@@H](C)C(N)=O	MDM2 (Homo sapiens, UniProt Q00987)	ligand displacement, FP			Ki	1900 nM
CCN(CC)C(=O)[C@@H]1C=C2c3cccc4c3c(cn4C(=O)c3ccco3)C[C@H]2N(C)C1	DRD5 (Homo sapiens, UniProt P21918)	ligand displacement, radioligand			Ki	> 10000 nM
Cc1ccc(OCCN(C)C)cc1C(=O)N[C@H](C)c1cc(-c2ccc(C(F)(F)F)s2)nc2ccccc12	Vero E6			1.953 µM	viability	112% and 107%
CC(C)C[C@@H]1NC(=O)[C@H](C)N(C)C(=O)[C@H](Cc2c[nH]c3ccccc23)NC(=O)[C@H](CCC(=O)O)NC(=O)[C@H](Cc2ccccc2)N(C)C(=O)[C@H](Cc2ccccc2)NC(=O)CSC[C@@H](C(N)=O)NC(=O)[C@H](CCCCN)NC(=O)[C@H](C(C)C)NC(=O)[C@H](Cc2ccc(O)cc2)NC(=O)[C@H](Cc2ccc(O)cc2)NC(=O)[C@H](C(C)C)NC(=O)[C@H](Cc2ccccc2)N(C)C(=O)[C@H](CCCNC(=N)N)NC1=O	ARID1B	binding, TR-FRET competition		1% DMSO	IC50	> 1000 nM
CN(C)CC1CN(S(=O)(F)=Nc2cc(Cl)c(C(=O)N3CCO[C@@H](c4ccccc4)C3)c(Cl)c2)C1 (stereo partly drawn)	Hemagglutinin (HA, Influenza A virus, UniProt P03452)		A/Puerto Rico/8/1934		Kd	41 nM
Cc1ccc(OCCN(C)C)cc1C(=O)N[C@H](C)c1cc(-c2cnn(C(F)F)c2)nc2ccccc12	Vero E6			7.812 µM	viability	90.6% and 96.9%
CCN(CC)C(=O)c1ccc(C(c2cccc(O)c2)N2CC(C)N(Cc3ccccc3)CC2C)cc1 (stereo not drawn)	OPRD1 (Homo sapiens, UniProt P41143, L300A)				Ki	0.58 ± 0.34 nM
C[C@@H](O)[C@@H]1NC(=O)[C@@H](NC(=O)CCOCCOCCOCCOCCNC(=O)c2ccc(NN)nc2)CSSC[C@@H](C(=O)O)NC(=O)[C@H](Cc2c[nH]cn2)NC(=O)[C@H](CO)NC(=O)[C@H](Cc2ccccc2)NC(=O)[C@@H]2CCCN2C(=O)[C@H](CO)NC(=O)[C@@H]2CCCN2C1=O [technetium-99m labelled]			mouse HCT-116 xenograft, liver	intravenous, 37 MBq, postmortem after imaging	tissue uptake	1.51 ± 0.29 %ID/g
COc1ccccc1C(C[N+](=O)[O-])c1c(-c2ccccc2)[nH]c2ccccc12 (stereo not drawn)	CNR1 (Homo sapiens, UniProt P21554, I169A)	G protein activation, agonist, BRET			EC50	930 nM
O=C(CCc1c(C(=O)Nc2ccc(Cl)cc2)[nH]c2ccc(Cl)cc12)Nc1ccc(Cl)cc1	gyrB with GyrA				IC50	1500 nM
O=C1NC2(CC2)COc2ncc(F)cc2[C@H]2COCCN2c2ccn3ncc1c3n2			Sprague-Dawley rat, male, liver	oral, 2.5 mg/kg/day, 4 weeks dosing, end of recovery	organ-to-brain weight ratio	653 ± 70.6%
Cc1ccc2c(C(C[N+](=O)[O-])c3cccs3)c(-c3ccccc3)[nH]c2c1 (stereo not drawn)	CNR1 (Homo sapiens, UniProt P21554, V249A)	β-arrestin recruitment, agonist, luciferase			EC50	180 nM
CCCCCn1cc(C(=O)c2ccc3ccccc3c2)c2ccccc21	CNR2 (Homo sapiens, UniProt P34972, L182I)	cAMP, agonist, BRET			EC50	50.1 nM
CCC[C@@H](C(=O)c1ccccc1)N1CCCC1	SLC6A3 (Homo sapiens, UniProt Q01959, S149A/S429G)	transporter uptake, inhibitor, radiometric			Ki	26 nM
O=[N+]([O-])CC(c1ccco1)c1c(-c2ccccc2)[nH]c2ccccc12 (stereo not drawn)	CNR1	Gαi1-γ2 dissociation, agonist, BRET			EC50	430 ± 60 nM
CC[C@H](C)[C@H](NC(=O)[C@H](CO)NC(=O)[C@H](CC(N)=O)NC(=O)[C@H](CC(C)C)NC(=O)[C@H](Cc1ccc(O)cc1)NC(=O)[C@H](CCCCN)NC(=O)[C@H](CCCCN)NC(=O)[C@@H](NC(=O)[C@H](C)NC(=O)[C@H](CCSC)NC(=O)[C@H](CCC(N)=O)NC(=O)[C@H](CCCCN)NC(=O)[C@H](CCCN=C(N)N)NC(=O)[C@H](CC(C)C)NC(=O)[C@H](CCCN=C(N)N)NC(=O)[C@@H](NC(=O)[C@H](Cc1ccc(O)cc1)NC(=O)[C@H](CC(N)=O)NC(=O)[C@H](CC(=O)O)NC(=O)[C@@H](NC(=O)[C@H](Cc1ccccc1)NC(=O)[C@@H](NC(=O)[C@H](C)NC(=O)[C@H](CC(=O)O)NC(=O)[C@H](CO)NC(=O)[C@@H](N)Cc1c[nH]cn1)C(C)C)[C@@H](C)O)[C@@H](C)O)C(C)C)C(=O)N[C@@H](CC(C)C)C(=O)N[C@@H](CC(N)=O)C(N)=O	ADCYAP1R1 (Homo sapiens, UniProt P41586, del89-109)	Gq dissociation, agonist, BRET2 TRUPATH	COS-7	37 °C	EC50	490 nM
COc1ccc(NC(=O)CCc2c(C(=O)Nc3ccc(OC)cc3)[nH]c3ccc(Cl)cc23)cc1	gyrB with GyrA				IC50	28500 nM
CCCCCn1cc(C(=O)c2cccc3c2CC(C)(C)C3)c2ccccc21	CNR1	cAMP, agonist			EC50	4.9 nM
CC(C)C[C@@H]1NC(=O)CN(C)C(=O)[C@H](Cc2c[nH]c3ccccc23)NC(=O)[C@H](CCC(=O)O)NC(=O)[C@H](Cc2ccccc2)N(C)C(=O)[C@H](Cc2ccccc2)NC(=O)CSC[C@@H](C(N)=O)NC(=O)[C@H](CCCCN)NC(=O)[C@H](C(C)C)NC(=O)[C@H](Cc2ccc(O)cc2)NC(=O)[C@H](Cc2ccc(O)cc2)NC(=O)[C@H](C(C)C)NC(=O)[C@H](Cc2ccccc2)N(C)C(=O)[C@H](C)NC1=O	ARID1B	binding, TR-FRET competition		1% DMSO	IC50	> 1000 nM

Some of these lines once more:
SMILES	tested on	test	test system	conditions	measurement	value
Cc1ccc(OCCN(C)C)cc1C(=O)N[C@H](C)c1cc(-c2ccc(C(F)(F)F)s2)nc2ccccc12	Vero E6			1.953 µM	viability	112% and 107%
CC(C)C[C@@H]1NC(=O)[C@H](C)N(C)C(=O)[C@H](Cc2c[nH]c3ccccc23)NC(=O)[C@H](CCC(=O)O)NC(=O)[C@H](Cc2ccccc2)N(C)C(=O)[C@H](Cc2ccccc2)NC(=O)CSC[C@@H](C(N)=O)NC(=O)[C@H](CCCCN)NC(=O)[C@H](C(C)C)NC(=O)[C@H](Cc2ccc(O)cc2)NC(=O)[C@H](Cc2ccc(O)cc2)NC(=O)[C@H](C(C)C)NC(=O)[C@H](Cc2ccccc2)N(C)C(=O)[C@H](CCCNC(=N)N)NC1=O	ARID1B	binding, TR-FRET competition		1% DMSO	IC50	> 1000 nM
